Measured values pooled from the literature.

Compound | assay | test system | conditions | endpoint | result
CCOc1c([C@H](C)n2nc(C)c3c(N)ncnc32)cc(Cl)c(F)c1[C@@H]1CNC(=O)C1 | ECG | previously treated B-cell malignancy patients | oral, 20 mg once daily, baseline below thresholds | patients with HR above 100 bpm | 0%
O=C(Nc1nc2cccc(-c3ccc(CN4CCS(=O)(=O)CC4)cc3)n2n1)C1CC1 |  | rheumatoid arthritis patients | oral, 100 mg twice daily, 4 weeks, TEAE regardless of relatedness | patients with Pyrexia | 0%
Cc1cc(-c2nnc(N)nc2-c2ccc(F)cc2)cc(Cl)n1 | measured: Hyperthyroidism | IO-naive mCRPC patients, male | oral, dose not given, treatment-related, all grades | patients with immune-mediated AE | 0%
COc1cc(Nc2ncc3c(n2)-c2ccc(Cl)cc2C(c2c(F)cccc2OC)=NC3)ccc1C(=O)O | measured: acneiform rash, grade 1 | cancer patients, phase 1/2 | oral, dose not given, together with: pembrolizumab | patients with adverse event | 8%
C[C@@H](Nc1cc(F)cc(F)c1)c1cc(C(=O)N(C)C)cc2c(=O)cc(N3CCOCC3)oc12 | CTCAE v4, measured: deep vein thrombosis | patients with advanced solid tumours | oral, dose not given, phase I dose finding | patients discontinuing for AE | 0%
CNC(=O)c1ccc(-c2cnc3ncc(Cc4ccc5ncccc5c4)n3n2)cc1F | measured: Cough, all grades | cancer patients | oral, 600 mg twice daily, other expansion cohort, any causality | patients with adverse event | 11%
Cc1cc(NC2CCN(C(=O)OC3CCN(C(=O)/C=C/CN(C)C)C3)CC2)n2ncc(C(C)C)c2n1 (stereo not shown) | Phase I dose escalation CTCAE v4.0, measured: Dyspnea | patients with advanced solid tumours | dose not given, TIW dosing any grade | patients with adverse event | 9%
CNC(=O)c1cc(Oc2ccc(NC(=O)Nc3cc(C(C)(C)C)nn3-c3ccc4ncccc4c3)c(F)c2)ccn1 |  | patients | oral, dose not given, cycles 1 and 2, High Cmax subgroup | patients with grade 1 musculoskeletal disorders | 17%
C[C@@H](c1ccc2nccn2c1)n1nnc2ncc(-c3cnn(C)c3)nc21 | measured: Fatigue grade ≥3 | EGFR-mutant MET-altered NSCLC | oral, dose not given, study | patients with treatment-related AEs | 0%
FC(F)(F)c1ccc(CNc2ccc(Cc3c[nH]c4ncc(Cl)cc34)cn2)cn1 | measured: blood alkaline phosphatase increased | patients with TGCT | oral, 1000 mg/day, all grades | patients with treatment-related adverse event | 10%

Excerpt of the above:
Compound | assay | test system | conditions | endpoint | result
FC(F)(F)c1ccc(CNc2ccc(Cc3c[nH]c4ncc(Cl)cc34)cn2)cn1 | measured: blood alkaline phosphatase increased | patients with TGCT | oral, 1000 mg/day, all grades | patients with treatment-related adverse event | 10%
